Measurements of several laboratories.
Every numbered part comes from another study and shows a few of its results, in no order. Substitutions count along the parent as printed.

Sample 1 — technique: RNA Bind-n-Seq; molecule type: RNA; sample: in vitro; concentration: not given; baseline: input RNA pool; direction: higher = stronger binding
Target: RING finger protein unkempt homolog, zinc fingers 1-6, GST-SBP tag (UNK, Homo sapiens, UniProt Q9C0B0, residues 30-357)
UniProt Q9C0B0, sequence (30-357, looked up): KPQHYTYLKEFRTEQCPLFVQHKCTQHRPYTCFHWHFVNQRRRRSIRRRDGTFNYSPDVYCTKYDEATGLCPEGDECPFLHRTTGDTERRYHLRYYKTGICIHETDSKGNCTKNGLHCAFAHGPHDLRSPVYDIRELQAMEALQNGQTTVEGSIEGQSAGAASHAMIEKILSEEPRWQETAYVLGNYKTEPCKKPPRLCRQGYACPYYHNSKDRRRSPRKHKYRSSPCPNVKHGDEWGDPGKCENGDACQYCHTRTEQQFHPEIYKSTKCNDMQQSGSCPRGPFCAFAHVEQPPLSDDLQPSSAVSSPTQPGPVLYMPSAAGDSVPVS
Setting: RNA with constant flanks, human-mouse chimeric sites, ends assumed
All sequences stand within: GGGAGUUCUACAGUCCGACGAUC … CAACAGAGGAUUGAGCAUCA
Oligonucleotide	bound/input enrichment [ratio]
CUCAGAGACGUGGCAUAUCAAUAUGUGAAAAAGGGGGCUCGUAUAUUUGUGGAAGGGAAAGUGGACUAUGGCGAGUACAUGGAUAAAAACAAUGUGAGGCGGCAAGCAACAACAAUCAUA	0.383
CCCCAAUACCAUUUGCAGGUCUGGAACUGCACUCUCUUUAAAGUUUUACAUGUAUACAUUUUAGGGCUGUAGAUUUAUUUUCCUGGUUUUGUUUUUCAUUGCUGACUUUGAGCACAAGAA	2.32
GGACAUCUGUCAAAUUGUUAUGUUCCUGUGAAACAAGUGAACACUCUGAUACACUUCAUUUAGUUGUACAUCUGUAUGAUAGAGAAAUGUAAAUAUGAAUAUAUUUACAAUGUGUCACUU	0.147
UGUAGUUUCUUGAUUUAUCAUUUUUCUCUUUUCUUUCUUUCCUUUAGGAAAAGCCUAAAGAUUAGGUUGUAAGAAAAACAGAAGCCAUGUUUCGAAGGAAGACCUGUCAGGUAUUUCGUC	0.133
GCAGGAUCUUCUAAGUACCAGUGGGGCAUUAUGAAAUCCCUUGGGCUCUCUGAUGACGAGAUAGUAAAGUUUUCUGAAGCAGAGCACUGGCUUGAUUAUUUCCCACCACUGGCCGUUCAG	0.16
CCCUCCCGGGCCACCCAACCCCUCCCGCUCCCAGCGGGAGAUCCAGGUUUCUUCUUAUUUCAUAGCAAAUAAGAAAAAUGUUCUACGCACAUUUUGUCCUCAGUAAACGAGGGCCUCUGG	0.391
ACCAUUUUCGCGGUUCAAGGUUUUGUGGUAGUUCACUUACGGUAUUAAAUUAUUAUUCUGCUUAGCUUAUAAUAAGGAUAAUUGCAUUUAAAGAGGUUACUGAAUGUUACUCUGAAACUU	0.435
UAAAUUAGGGCUGCCGUUUUCUGUUUCUCCCUGGGCUGCGGAAAGCCAGAAGAUUUUAUCUAGCUUAUACAAGGCUGCUGGAGCUUGCUCUUUUUUUCCACGAGGGUUUUUUUUCCAGCA	0.634

Sample 2 — technique: protein binding microarray; molecule type: double-stranded DNA, one strand shown; sample: in vitro; concentration: not given; baseline: not given; direction: higher = stronger binding
Target: Histone acetyltransferase KAT6A, winged helix 2, GST fusion (KAT6A, Homo sapiens, UniProt Q92794, residues 85-181)
Setting: 8-mer, flanks averaged, mean of 2 arrays, mostly near background
Residues (chain): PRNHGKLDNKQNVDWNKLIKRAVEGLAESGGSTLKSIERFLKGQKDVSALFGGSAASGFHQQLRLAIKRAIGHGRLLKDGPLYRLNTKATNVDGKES
Oligonucleotide	E-score
CTTTTGTA	-0.00658
ACCCGAGA	0.119
ATATTCGC	-0.0217
GGTGTCAA	0.0896
ATGTCAAG	-0.0368
GGAGTAGA	0.059
CGCACGGC	0.124
TCCCAAGA	0.0412
CGCTCTTC	0.0501
AGGAGGAG	0.0492
GATTCATA	-0.146

Sample 3 — target: CCNA1, cyclin fold, Cln2 fusion (human); technique: yeast growth competition, sequencing; sample: yeast; setting: weak parent motif; baseline: not given; direction: higher = stronger binding
Starting sequence: CDKN1A docking peptide (human); SKACRRLFGPVDS; partner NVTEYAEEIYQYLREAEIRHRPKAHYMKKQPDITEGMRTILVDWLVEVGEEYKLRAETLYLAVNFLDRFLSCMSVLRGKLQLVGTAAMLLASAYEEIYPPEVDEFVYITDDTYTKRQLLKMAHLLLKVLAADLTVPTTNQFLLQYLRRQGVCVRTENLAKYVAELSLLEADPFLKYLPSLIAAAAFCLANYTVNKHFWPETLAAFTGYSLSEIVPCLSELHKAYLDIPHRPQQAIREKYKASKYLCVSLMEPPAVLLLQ
Variant	normalised enrichment score
G9E	0.901
A3T	0.576
R5D	-0.566
A3Y	-0.175
A3H	0.261
P10S	0.936

Other studies, line by line
Molecule	target	test	system	conditions	scale	measurement	result
PhoQ, residues 284 288 289 292 302 303 SQSLSM	PhoP, residues 12 14 15 18 19 GHCSL (Escherichia coli, UniProt P23836)	Sort-seq, measured: YFP reporter	E. coli	PhoQ-PhoP variant library, together with: 10 µM Mg2+	baseline: high Mg2+ state, higher = stronger signaling	fold induction	8.01
